Assay results from different studies.
Numbered parts are unrelated; each lists some results of a single study. Changes are numbered by the printed parent chain.

Block 1 — target: CCNF, cyclin fold, Cln2 fusion (human); method: yeast growth competition, sequencing; medium: yeast; notes: strong parent motif; relative to: not given; direction: higher = stronger binding
Starting sequence: CDC6 docking peptide (human); TLKGRRLVFDNQL
`L7M`: “normalised enrichment score” 0.712.
`L13S` — result for “normalised enrichment score”: 9.74.
Under “normalised enrichment score”, `K3R` is recorded as 8.89.
`N11E` — result for “normalised enrichment score”: 7.99.
`L7T`: “normalised enrichment score” 0.453.
For `G4L`, “normalised enrichment score” read 0.975.
For `L7Q`, “normalised enrichment score” read 1.26.
Under “normalised enrichment score”, `G4F` is recorded as 3.25.
`L13P` — result for “normalised enrichment score”: 10.

Block 2 — method: DHFR PCA, deep sequencing; medium: yeast; with: (+)-ABA 0.39 µM; relative to: wild-type fitted maximum; direction: higher = stronger binding
Target: ABI1, truncated, D143A, DHFR fusion (Arabidopsis thaliana)
Notes: methotrexate growth selection, single substitutions
Starting sequence: PYL1, truncated, DHFR fusion (Arabidopsis thaliana); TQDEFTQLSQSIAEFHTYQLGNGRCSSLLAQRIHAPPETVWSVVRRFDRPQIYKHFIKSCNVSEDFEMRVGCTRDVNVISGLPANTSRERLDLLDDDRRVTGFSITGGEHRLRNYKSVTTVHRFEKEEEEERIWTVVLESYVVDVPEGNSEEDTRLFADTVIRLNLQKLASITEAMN; partner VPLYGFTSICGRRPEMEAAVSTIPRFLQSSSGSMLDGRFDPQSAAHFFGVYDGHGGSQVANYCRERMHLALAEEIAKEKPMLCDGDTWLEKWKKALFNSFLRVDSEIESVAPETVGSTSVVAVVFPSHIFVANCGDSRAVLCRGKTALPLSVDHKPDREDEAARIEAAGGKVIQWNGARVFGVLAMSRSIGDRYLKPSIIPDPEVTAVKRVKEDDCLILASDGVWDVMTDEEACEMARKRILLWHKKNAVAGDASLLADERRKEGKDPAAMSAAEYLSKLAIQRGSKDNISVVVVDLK
`H55L`: “relative binding score” 49.6%.
`T6W` — result for “relative binding score”: 36.2%.
Under “relative binding score”, `S26H` is recorded as 25.2%.
For `N85V`, “relative binding score” read 70%.
For `L94V`, “relative binding score” read -0.621%.
Under “relative binding score”, `Q167N` is recorded as 21.6%.
For `D75Y`, “relative binding score” read 43.5%.
`V136N`: “relative binding score” -7.08%.
`F124R`: “relative binding score” -7.37%.
For `Q51P`, “relative binding score” read -10.5%.
Under “relative binding score”, `D159C` is recorded as -4.19%.
Under “relative binding score”, `G71K` is recorded as -1.99%.

Block 3 — method: protein-binding microarray; form: double-stranded DNA, one strand shown; medium: in vitro; concentration: not given; direction: higher = stronger binding
Target: Protein C-ets-1 (ETS1, Homo sapiens, UniProt P14921, residues 1-441, K379A, full length assumed)
Notes: k-mer, scored over probes, only values ≥0.25
Target sequence (chain): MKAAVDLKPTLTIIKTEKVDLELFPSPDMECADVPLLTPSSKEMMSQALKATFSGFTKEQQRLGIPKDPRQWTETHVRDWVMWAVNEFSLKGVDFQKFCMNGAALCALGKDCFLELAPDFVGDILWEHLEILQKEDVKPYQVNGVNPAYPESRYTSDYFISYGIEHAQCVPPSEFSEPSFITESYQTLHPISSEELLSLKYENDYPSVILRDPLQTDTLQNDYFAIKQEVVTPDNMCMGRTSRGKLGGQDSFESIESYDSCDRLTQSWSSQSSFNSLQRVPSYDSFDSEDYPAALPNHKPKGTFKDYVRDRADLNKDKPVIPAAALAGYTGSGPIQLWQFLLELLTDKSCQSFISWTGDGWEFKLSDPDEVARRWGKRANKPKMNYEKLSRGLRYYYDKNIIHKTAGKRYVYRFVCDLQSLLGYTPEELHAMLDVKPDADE
`GCACATAA` has an E-score of 0.265.
With `AAACCGCC` the E-score was 0.255.
`ATCCGGAA` gave an E-score of 0.336.
`ATTACACA` has an E-score of 0.29.
The E-score of `CGACAATA` is reported as 0.257.
The E-score of `CCGGTGAA` is reported as 0.331.
With `CCGGTCAA` the E-score was 0.362.
`TACCGGGA` has an E-score of 0.427.
With `CGCGTATC` the E-score was 0.31.
With `ACCCCTCC` the E-score was 0.252.
`AAACACCG` has an E-score of 0.307.

Single results of other studies
For `PhoQ, residues 284 288 289 292 302 303 SNGLAW`, the fold induction was 8.28 (PhoP, residues 12 14 15 18 19 SQCLL (Escherichia coli, UniProt P23836); Sort-seq, refers to: YFP reporter; E. coli; PhoQ-PhoP variant library, with: 10 µM Mg2+; relative to: high Mg2+ state, higher = stronger signaling).

A few entries again (block 3):
The E-score of `CGACAATA` is reported as 0.257.
The E-score of `CCGGTGAA` is reported as 0.331.
With `CCGGTCAA` the E-score was 0.362.
`TACCGGGA` has an E-score of 0.427.
